Published values collected from several papers.
Each line is one published result; not all experiments were run side by side.
Observed: cell growth or viability

SMILES = CCC(=CCc1c(O)cc2c(c1O)C(=O)CC(c1ccc(O)cc1)O2)CC (stereo in doubt); cell line = HeLa; technique = MTT; tested at = 100 µM; time = 48 h; inhibition = 99.8%
SMILES = OCc1ccc(-c2n[nH]c3ccccc23)o1; cell line = RBE; technique = ATP luminescence; tested at = 46 µM; time = 72 h; inhibition = 62%
SMILES = COc1ccc(-c2cc(-c3ccc4oc(=O)cc(C)c4c3O)nc(N)n2)cc1; cell line = KB; technique = MTT; tested at = 2 µg/mL; time = 72 h; inhibition = 0%
SMILES = C[C@@H](Oc1cc(-c2cnn(C3CCNCC3)c2)cnc1N)c1c(Cl)ccc(F)c1Cl; cell line = KARPAS-299; technique = MTT; tested at = 0.0016 µg/mL; time = 72 h; inhibition = 19.5%
SMILES = Cc1ccc(-c2cc(-c3ccc4oc(=O)cc(C)c4c3O)nc(N)n2)cc1; cell line = KB; technique = MTT; tested at = 2 µg/mL; time = 72 h; inhibition = 0%
SMILES = COc1cccc(CNC[C@@](C)(O)[C@@H]2CC[C@@H](C)C[C@H]2OCc2ccccc2)c1; cell line = HeLa; technique = MTT; tested at = 10 µM; time = 72 h; inhibition = 65.3%
SMILES = Cc1cc(Nc2ncc(Cl)c(Nc3ccccc3S(=O)(=O)C(C)C)n2)c(OC(C)C)cc1C1CCNCC1; cell line = KARPAS-299; technique = MTT; tested at = 1.66667 µg/mL; time = 72 h; inhibition = 76.4%
SMILES = C[C@@H]1CC[C@@H]([C@@](C)(O)Cn2cnc3ccccc32)[C@H](OCc2ccccc2)C1; cell line = HeLa; technique = MTT; tested at = 10 µM; time = 72 h; inhibition = 61.6%
SMILES = OCc1ccc(-c2nn(Cc3ccccc3Cl)c3ccccc23)o1; cell line = RBE; technique = ATP luminescence; tested at = 46 µM; time = 72 h; inhibition = 63%
SMILES = CCC(=CCc1c(O)cc2c(c1O)C(=O)C[C@H](c1ccccc1O)O2)CC; cell line = HeLa; technique = MTT; tested at = 3.75 µM; time = 48 h; inhibition = 3.88%
SMILES = CCN(Cc1cccnc1)c1ccc(CO)c(Cl)c1; cell line = RBE; technique = ATP luminescence; tested at = 46 µM; time = 72 h; inhibition = 54%
SMILES = C[C@@H]1CC[C@@H]([C@](C)(O)CNCc2ccccc2)[C@H](OCc2ccccc2)C1; cell line = HeLa; technique = MTT; tested at = 30 µM; time = 72 h; inhibition = 98.1%
SMILES = Cc1cc(=O)oc2ccc(-c3cc(-c4cccs4)nc(N)n3)c(O)c12; cell line = KB; technique = MTT; tested at = 8 µg/mL; time = 72 h; inhibition = 0%
SMILES = Cc1nc(Nc2ncc(C(=O)Nc3c(C)cccc3Cl)s2)cc(N2CC[C@H](O)C2)n1; cell line = KARPAS-299; technique = ATP luminescence; tested at = 10 µM; time = 72 h; inhibition = 34%
SMILES = CC1(C)C[C@H]2[C@H]1CC[C@]1(C)CCC[C@@]2(NS(=O)(=O)c2cc(Cl)cc(Cl)c2O)C1; cell line = HT-29; technique = CCK-8; tested at = 50 µM; inhibition = 93.9%
SMILES = Cc1cc(=O)oc2ccc(-c3cc(-c4ccccc4)nc(N)n3)c(O)c12; cell line = KB; technique = MTT; tested at = 32 µg/mL; time = 72 h; inhibition = 9%
SMILES = CC1(C)C[C@H]2[C@H]1CC[C@]1(C)CCC[C@@]2(n2cc(C(=O)Nc3ccc(Cl)cc3)nn2)C1; cell line = HT-29; technique = CCK-8; tested at = 10 µM; inhibition = < 50%
SMILES = CCCCCCCCCCCCCCCCCCOc1cccc(CC(=O)OCC[N+](CC)(CC)CC)c1; cell line = NCI-H226; technique = SRB; tested at = 10 µM; inhibition = 40.5%
SMILES = OCc1ccc(-c2nn(Cc3ccccc3)c3c2CCCC3)o1; cell line = RBE; technique = ATP luminescence; tested at = 46 µM; time = 72 h; inhibition = 62%
SMILES = Cc1cc(=O)oc2ccc(-c3cc(-c4ccc(Br)cc4)nc(N)n3)c(O)c12; cell line = KB; technique = MTT; tested at = 128 µg/mL; time = 72 h; inhibition = 23%
SMILES = CC1(C)C[C@H]2[C@H]1CC[C@]1(C)CCC[C@@]2(n2cc(CNC(N)=O)nn2)C1; cell line = HT-29; technique = CCK-8; tested at = 50 µM; inhibition = 93.8%
SMILES = Cc1cc(=O)oc2ccc(-c3cc(-c4cccc([N+](=O)[O-])c4)nc(N)n3)c(O)c12; cell line = KB; technique = MTT; tested at = 8 µg/mL; time = 72 h; inhibition = 20.5%
SMILES = C[C@@H]1CC[C@@H]([C@@](O)(CNCc2ccccc2)COCc2ccccc2)[C@H](OCc2ccccc2)C1; cell line = A2780; technique = MTT; tested at = 30 µM; time = 72 h; inhibition = 99.1%
SMILES = Cn1nc(-c2ccc(CO)o2)c2ccccc21; cell line = RBE; technique = ATP luminescence; tested at = 46 µM; time = 72 h; inhibition = 56%
SMILES = CN(C)C(=O)c1cn([C@@]23CCC[C@@](C)(CC[C@@H]4[C@@H]2CC4(C)C)C3)nn1; cell line = HT-29; technique = CCK-8; tested at = 10 µM; inhibition = < 50%
SMILES = C=C(C)[C@@H]1CC[C@@H](C)C[C@H]1OCc1ccccc1; cell line = HeLa; technique = MTT; tested at = 10 µM; time = 72 h; inhibition = 36%
SMILES = O=C(c1ccccc1)n1nc(-c2ccc(CO)o2)c2ccccc21; cell line = RBE; technique = ATP luminescence; tested at = 46 µM; time = 72 h; inhibition = 58%
SMILES = COc1ccc(CNC[C@](O)(COCc2ccc(F)cc2)[C@@H]2CC[C@@H](C)C[C@H]2OCc2ccc(F)cc2)cc1; cell line = HeLa; technique = MTT; tested at = 30 µM; time = 72 h; inhibition = 95.5%
SMILES = CC1(C)C[C@H]2[C@H]1CC[C@]1(C)CCC[C@@]2(n2cc(C(=O)N3CCNCC3)nn2)C1; cell line = HT-29; technique = CCK-8; tested at = 50 µM; inhibition = 98.5%
SMILES = COc1ncccc1Cn1nc(-c2ccc(CO)o2)c2ccccc21; cell line = RBE; technique = ATP luminescence; tested at = 46 µM; time = 72 h; inhibition = 50%
SMILES = C=C(C)[C@@H]1CC[C@@H](C)C[C@H]1OCc1ccc(OC)cc1; cell line = A2780; technique = MTT; tested at = 30 µM; time = 72 h; inhibition = 28.4%
SMILES = COc1ccc(Cn2nc(-c3ccc(CO)o3)c3ccccc32)cc1; cell line = RBE; technique = ATP luminescence; tested at = 46 µM; time = 72 h; inhibition = 70%
SMILES = C[C@@H]1CC[C@@H]([C@](O)(CNCc2ccccc2)COCc2ccc(F)cc2)[C@H](OCc2ccc(F)cc2)C1; cell line = HeLa; technique = MTT; tested at = 30 µM; time = 72 h; inhibition = 98.8%

Some of these lines once more:
SMILES = Cc1cc(=O)oc2ccc(-c3cc(-c4cccc([N+](=O)[O-])c4)nc(N)n3)c(O)c12; cell line = KB; technique = MTT; tested at = 8 µg/mL; time = 72 h; inhibition = 20.5%
SMILES = C[C@@H]1CC[C@@H]([C@@](O)(CNCc2ccccc2)COCc2ccccc2)[C@H](OCc2ccccc2)C1; cell line = A2780; technique = MTT; tested at = 30 µM; time = 72 h; inhibition = 99.1%
SMILES = Cn1nc(-c2ccc(CO)o2)c2ccccc21; cell line = RBE; technique = ATP luminescence; tested at = 46 µM; time = 72 h; inhibition = 56%
SMILES = CN(C)C(=O)c1cn([C@@]23CCC[C@@](C)(CC[C@@H]4[C@@H]2CC4(C)C)C3)nn1; cell line = HT-29; technique = CCK-8; tested at = 10 µM; inhibition = < 50%
SMILES = C=C(C)[C@@H]1CC[C@@H](C)C[C@H]1OCc1ccccc1; cell line = HeLa; technique = MTT; tested at = 10 µM; time = 72 h; inhibition = 36%
